# Measurements collected from several papers.
# ± marks the error that the study gave.
SMILES,test,system,conditions,scale,endpoint,value
Cn1c(=O)oc2ccc(-c3ccc(CC(C#N)NC(=O)C4CNCCCO4)c(F)c3)cc21 (stereo not drawn),refers to: skin exfoliation,human,"15 mg, treatment-related, single dose, fasted",,subjects with adverse event,0%
O=C([O-])CN1CCN(CC(=O)[O-])CCN(CC(=O)NCC2CCC(C(=O)NC(Cc3ccc4ccccc4c3)C(=O)NCCCCC(NC(=O)NC(CCC(=O)O)C(=O)O)C(=O)O)CC2)CCN(CC(=O)[O-])CC1.[44Sc+3] (stereo not drawn),"PET/CT dosimetry, OLINDA/EXM","human, kidneys",,,residence time,0.341 h
COc1cc(N(C)CCN(C)C)c(NC(=O)CCSCC(N)C(=O)O)cc1Nc1nccc(-c2cn(C3CC3)c3ccccc23)n1 (stereo not drawn),"radio-HPLC, co-eluting peaks pooled","human, feces","dose not given, 0 to 240 h, sample holds 81.99% dose",reference: sample radioactivity,share of radioactivity,2.3%
CC(C)[C@H](NC(=O)CNC(=O)[C@H](CCC(N)=O)NC(=O)[C@H](C)N)C(=O)O,,"human, plasma","intravenous infusion, 30 mg/kg single, 15 min infusion, geometric mean",,AUC(0-inf),490 ng·h/mL
CCCC[C@H](NC(=O)CNC(=O)CNC(=O)CN1CCN(CC(=O)O)CCN(CC(=O)O)CC1)C(=O)N[C@H]1CC(=O)NCCCC[C@@H](C(N)=O)NC(=O)[C@H](Cc2c[nH]c3ccccc23)NC(=O)[C@H](CCCNC(=N)N)NC(=O)[C@@H](Cc2ccccc2)NC(=O)[C@H](Cc2c[nH]cn2)NC1=O [gallium-67 labelled],,"C57 mice, female, B16/F1 melanoma, tumour over blood","intravenous, 0.037 MBq, 0.5 h",,tumour to tissue uptake ratio,9.14
NC[C@@H](C(=O)Nc1ccc(-c2cn[nH]c2)cc1)c1ccccc1,OECD 405 eye irritation,"New Zealand White rabbit, eye","topical, 0.1%, 8 h (day 1), scale 0 to 2",direction not given,iris score,0
C[C@H](NC(=O)[C@H](C)NC(=O)[C@H](CCCNC(=N)N)NC(=O)[C@H](CCCNC(=N)N)NC(=O)[C@H](CCCNC(=N)N)NC(=O)[C@H](C)NC(=O)[C@H](C)NC(=O)[C@H](CCCNC(=N)N)NC(=O)[C@H](CCCNC(=N)N)NC(=O)[C@H](CCCNC(=N)N)NC(=O)[C@H](CCCNC(=N)N)NC(=O)c1ccc2c(c1)C(=O)OC21c2ccc(O)cc2Oc2cc(O)ccc21)C(=O)N[C@@H](CCCNC(=N)N)C(=O)N[C@@H](CCCNC(=N)N)C(=O)N[C@@H](CCCNC(=N)N)C(=O)N[C@@H](C)C(=O)N[C@@H](C)C(=O)N[C@@H](CCCNC(=N)N)C(=O)N[C@@H](CCCNC(=N)N)C(=O)N[C@@H](CCCNC(=N)N)C(=O)N[C@@H](CCCNC(=N)N)C(=O)O,,bovine cartilage explants,"30 µM, 24 h, with: 1 x PBS",,retained fraction,~99%
COC(=O)c1ccc2c(c1)NC(=O)/C2=C(\Nc1ccc2c(c1)CCN2C(=O)CN1CCOCC1)c1ccccc1,,"Sprague-Dawley rat, whole blood","1 µM, 15 min, 37 °C",,blood-to-plasma ratio,1.27
CC(C)c1cnc(-c2cc(Cl)ccc2F)cc1Nc1ccncc1C(=O)NC(CO)CO,refers to: Anemia,solid tumour patients,"oral, dose not given, phase I monotherapy",,treatment-related adverse events,19%
COC(=O)c1ccc(-c2cn(Cc3cc(Cl)ccc3O[11CH3])nn2)cc1,HPLC,"rhesus monkey, plasma",90 min,,parent fraction,70%
CC(C)[C@H](NC(=O)[C@@H]1CCCN1C(=O)[C@H](CCCNC(=N)N)NC(=O)[C@H](CS)NC(=O)[C@H](Cc1c[nH]c2ccccc12)NC(=O)[C@H](CCCNC(=N)N)NC(=O)[C@@H](Cc1ccccc1)NC(=O)[C@H](Cc1c[nH]cn1)NC(=O)[C@H](CCC(=O)O)NC(=O)[C@H](CS)NC(=O)[C@H](CS)NC(=O)COCCOCCNC(=O)[C@@H]1CC(=O)N[C@@H](CCCNC(=N)N)C(=O)NCC(=O)N[C@@H](CC(=O)O)C(=O)N[C@H](Cc2ccc(O)cc2)C(=O)N1)C(N)=O [technetium-99m labelled],,"nude mouse, M21 melanoma xenograft, pancreas","intravenous, 2 h",,tissue uptake,0.09 ± 0.04 %ID/g
COCCOCCOCCOCCOCCOCCOCCOCCC(=O)NCCCc1cc2cc3nc(cc4[nH]c(cc5nc(c(OC)c1[nH]2)C(=O)C5(C)C)cc4CCc1ccc(C(=O)O)cc1)CC3(C)C,,water with 5% DMF,room temperature,,Qy absorption FWHM,25 nm
COc1cc(NC(C)=O)c2c(c1O)-c1c(OC)c(OC)cc3c1C(C2)N(C)CC3 (stereo not drawn),,rat kidney homogenate,"100 µg/mL, 40 d, -20 °C, long-term storage",,remaining compound,90.6 ± 2.1%
CCCCCCCC(=O)OC[C@H](NC(=O)[C@H](CO)NC(=O)CN)C(=O)N[C@@H](Cc1ccccc1)C(=O)N[C@@H](CC(C)C)C(=O)N[C@@H](CO)C(=O)N1CCC[C@H]1C(=O)N[C@@H](CCC(=O)O)C(=O)N[C@@H](Cc1cnc[nH]1)C(=O)N[C@@H](CCC(N)=O)C(=O)N[C@@H](CCCNC(=N)N)C(=O)N[C@H](C(=O)N[C@@H](CCC(N)=O)C(=O)N[C@@H](CCC(N)=O)C(=O)N[C@@H](CCCNC(=N)N)C(=O)N[C@@H](CCCCN)C(=O)N[C@@H](CCC(=O)O)C(=O)N[C@@H](CO)C(=O)N[C@@H](CCCCN)C(=O)N[C@@H](CCCCN)C(=O)N1CCC[C@H]1C(=O)N1CCC[C@H]1C(=O)N[C@@H](C)C(=O)N[C@@H](CCCCN)C(=O)N[C@@H](CC(C)C)C(=O)N[C@@H](CCC(N)=O)C(=O)N1CCC[C@H]1C(=O)N[C@@H](CCCNC(=N)N)C(=O)O)C(C)C,,patients with chronic HFrEF,"iv infusion, 0.1 µg/kg/min, end of 120 min infusion, scale 1-10, median",direction not given,hunger score,5
CCCCN1C(=O)c2cccc3c(NCCCCN4CCOCC4)ccc(c23)C1=O,,water,pH 6,reference: fluorescein/0.1 N NaOH,fluorescence quantum yield,0.34
CCCCCC(O)C=CC1OC2OC(C1CC=CCCCC(=O)O)C2(F)F (stereo not drawn),,50 mM HCl buffer,"pH 1.25, 23 °C",,hydrolysis rate constant,0.00018 s⁻¹
O=C(CCCCC[N+]#[C][99Tc-5]([C]#[N+]CCCCCC(=O)N[C@H]1C(O)O[C@H](CO)[C@@H](O)[C@@H]1O)([C]#[N+]CCCCCC(=O)N[C@H]1C(O)O[C@H](CO)[C@@H](O)[C@@H]1O)([C]#[N+]CCCCCC(=O)N[C@H]1C(O)O[C@H](CO)[C@@H](O)[C@@H]1O)([C]#[N+]CCCCCC(=O)N[C@H]1C(O)O[C@H](CO)[C@@H](O)[C@@H]1O)[C]#[N+]CCCCCC(=O)N[C@H]1C(O)O[C@H](CO)[C@@H](O)[C@@H]1O)N[C@H]1C(O)O[C@H](CO)[C@@H](O)[C@@H]1O (stereo partly drawn),SPECT/CT,nude mouse with U87 MG xenograft,2 h,,tumour/non-tumour ratio,3.09 ± 0.19
O=[11C](OC(C(F)(F)F)C(F)(F)F)N1CCC(CNS(=O)(=O)c2ccc(Cl)cc2)CC1,PET,"Sprague-Dawley rat, brain","intravenous, 2 min",,peak brain uptake,1.7 SUV
CC(C)(C)ONc1nc(Nc2ccnc(C(F)(F)F)c2)nc(-c2cccc(C(F)(F)F)n2)n1,,"female Balb/cA nude mice xenograft, plasma","oral, 18.05 mg/kg",,half-life,7.43 h
N=C(N)NCCC[C@@H]1NC(=O)[C@H](Cc2c[nH]c3ccccc23)NC(=O)[C@@H](CC2CCCCC2)NC(=O)[C@@H]2CCCN2C(=O)[C@@H](NC(=O)CCc2ccccc2)CCCNC1=O,two-compartment model,"C57BL/6J mouse, plasma plasma","intravenous, 1 mg/kg single dose",,K21,5.82 h⁻¹
O=C(NCCCN(CCCCN(CCCNC(=O)c1cccc(=O)n1[O-])C(=O)c1cccc(=O)n1[O-])C(=O)c1cccc(=O)n1[O-])c1cccc(=O)n1[O-].[89Zr+4],radio-TLC,PBS,"5 d, pH 7.4, 37 °C, with: Ni^2+ 10-fold excess",,intact complex,98.7 ± 1.9%
CC(C)C[C@@H](NC(=O)[C@H](NC(=O)[C@H]1CCCN1)[C@H](C)O)C(=O)N[C@H](Cc1c[nH]cn1)C(=O)N[C@@H](C(=O)N[C@H](Cc1c[nH]cn1)C(=O)N[C@H](CC(N)=O)C(=O)N[C@H](CCCNC(=N)N)C(=O)N[C@H](CCCNC(=N)N)C(=O)N[C@H](CCCNC(=N)N)C(=O)N[C@H](CCCNC(=N)N)C(=O)N[C@H](CCCNC(=N)N)C(N)=O)[C@H](C)O,,"Beagle dog, plasma","intravenous, 3 mg/kg, single dose",,beta half-life,2.9 h
OCc1cn(Cc2ccc(-c3noc(-c4ccc(OCC[18F])c(C(F)(F)F)c4)n3)cc2)nn1,,"female Lewis rat, spleen","intravenous, 5 min",,tissue uptake,2.22 ± 0.23 %ID/g
Cc1[nH]c(/C=C2\C(=O)Nc3ccc(F)cc32)c(C)c1NC(=O)CCN1CCN(C)CC1,,dog plasma,"1.00 ng/mL nominal, 30 d, -80 °C, frozen storage",,measured concentration,0.99 ng/mL
CCCCCCCCCCCCCCCC(=O)N[C@@H](CCCCN)C(=O)N[C@@H](CCCCN)C(=O)N[C@@H](CO)C(=O)N[C@@H](CCCNC(=N)N)C(=O)N[C@@H](C)C(=O)N[C@@H](CC(C)C)C(=O)N[C@@H](Cc1ccccc1)C(N)=O,,"cynomolgus monkey, female","30 mg/kg, day 1",,activated partial thromboplastin time,26.2 ± 2.8 s
Cc1ccc(OCC(=O)O)cc1,,"Sprague-Dawley rat, male, plasma","oral gavage, 10 mg/kg of parent drug",,t1/2,1.34 h
Cn1c(=O)c2c(nc(CN3CCN(C(=O)C4CC4)CC3)n2Cc2ccccc2F)n(C)c1=O,metabolic stability,"rat, liver microsomes",,,half-life,0.333 h
CCCC(CCC)NC(=O)c1ccc(O)c(OS(=O)(=O)O)c1,LC-MS,"Sprague-Dawley rats, pooled sexes, plasma","oral, 200 mg/kg of parent drug, 1 h",reference: total peak area,metabolite peak area,0.78%
C=CC(=C)CC[C@]1(C)[C@H](C)C[C@H](O)[C@@]23C(=C[C@H](OC(=O)C(C)C)C[C@@H]12)[C@@H](OC(C)=O)O[C@H]3OC(C)=O,haemolysis,,100 µM,,haemolysis,17.5%
COc1cc(O)c(-c2cc(-c3cc(-c4c(O)cc(OC)c5c4C[C@@H](C)N[C@@H]5C)c4cc(C)cc(OC)c4c3O)c(O)c3c(OC)cc(C)cc23)c2c1[C@@H](C)N[C@H](C)C2,metabolic stability,"male rat, liver microsomes","1 µM, 30 min",,compound remaining,96%

# Excerpt of the above:
SMILES,test,system,conditions,scale,endpoint,value
O=[11C](OC(C(F)(F)F)C(F)(F)F)N1CCC(CNS(=O)(=O)c2ccc(Cl)cc2)CC1,PET,"Sprague-Dawley rat, brain","intravenous, 2 min",,peak brain uptake,1.7 SUV
CCCC[C@H](NC(=O)CNC(=O)CNC(=O)CN1CCN(CC(=O)O)CCN(CC(=O)O)CC1)C(=O)N[C@H]1CC(=O)NCCCC[C@@H](C(N)=O)NC(=O)[C@H](Cc2c[nH]c3ccccc23)NC(=O)[C@H](CCCNC(=N)N)NC(=O)[C@@H](Cc2ccccc2)NC(=O)[C@H](Cc2c[nH]cn2)NC1=O [gallium-67 labelled],,"C57 mice, female, B16/F1 melanoma, tumour over blood","intravenous, 0.037 MBq, 0.5 h",,tumour to tissue uptake ratio,9.14
CCCCN1C(=O)c2cccc3c(NCCCCN4CCOCC4)ccc(c23)C1=O,,water,pH 6,reference: fluorescein/0.1 N NaOH,fluorescence quantum yield,0.34
